# Assay results from different studies.
# Numbered parts are unrelated; each lists some results of a single study. Substitutions count along the parent as printed.

# Series 1
# Target: CCNF, cyclin fold, Cln2 fusion (human)
# Technique: yeast growth competition, sequencing
# Sample: yeast
# Setting: strong parent motif
# Relative to: not given
# Direction: higher = stronger binding
# Starting sequence: RB1 docking peptide (human); PKPLKKLRFDIEG
Change,normalised enrichment score
G13I,2.27
K5Y,1.01
R8V,2.72
F9V,0.701
R8N,2.31
I11K,1.14
I11F,1.34
P1V,1.06
D10C,1.36
I11A,1.57
P3N,0.355
G13V,1.86
K6L,0.933
K2R,1.04
G13K,1.58
P3G,1.73
F9H,0.605
K6H,1.14
F9G,1.22
K6A,2.37
F9I,-0.525
L7C,0.88
K5H,1.02
D10A,1.64
L4M,3.31

# Series 2
# Target: Histone acetyltransferase KAT6A, both winged helices, GST fusion (KAT6A, Homo sapiens, UniProt Q92794, residues 1-181)
# Technique: protein binding microarray
# Molecule type: double-stranded DNA, one strand shown
# Sample: in vitro
# Concentration: not given
# Setting: 8-mer, flanks averaged, mean of 2 arrays, mostly near background
# Relative to: not given
# Direction: higher = stronger binding
# Target sequence (chain): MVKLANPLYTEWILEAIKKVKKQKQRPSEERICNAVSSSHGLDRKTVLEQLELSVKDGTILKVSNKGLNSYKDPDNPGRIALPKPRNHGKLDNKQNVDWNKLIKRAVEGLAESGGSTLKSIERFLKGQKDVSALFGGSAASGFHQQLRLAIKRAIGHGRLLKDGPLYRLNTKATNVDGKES
Oligonucleotide,E-score
AAGCCAGT,-0.357
ACTACCGG,0.089
AGAAATGC,0.00579
ACGGGAGG,0.145
GTACCGGA,0.17
CTGGCAAG,-0.185
GCAGGAGA,-0.0615
GAGGGTGA,-0.12
ATCGAAGA,0.0837
CAGGGAGC,-0.0646
ACACGAAA,0.0726
ATCGGCCG,0.27
ATTTGGTG,-0.248
CCGAACCA,0.0625
AAGTTACT,-0.144
CTTAGTAA,0.00734
ATTTTACG,0.0472
TTATGCAA,-0.189
CGACGCGC,0.341
TACTCATA,-0.0692
GAACTCTA,-0.092

# Series 3
# Target: ABI1, truncated, D143A, DHFR fusion (Arabidopsis thaliana)
# Technique: DHFR PCA, deep sequencing
# Sample: yeast
# Setting: methotrexate growth selection, single substitutions
# With: (+)-ABA 0.11 µM
# Relative to: wild-type fitted maximum
# Direction: higher = stronger binding
# Starting sequence: PYL1, truncated, DHFR fusion (Arabidopsis thaliana); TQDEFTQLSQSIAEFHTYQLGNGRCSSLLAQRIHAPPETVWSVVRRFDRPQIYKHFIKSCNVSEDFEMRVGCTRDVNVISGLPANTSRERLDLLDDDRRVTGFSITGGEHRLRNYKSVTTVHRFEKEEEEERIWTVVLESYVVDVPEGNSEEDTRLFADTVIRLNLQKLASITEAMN
Change,relative binding score [%]
S171W,11.7
C25K,-9.14
F5V,29
V118P,-3.68
G81N,31.7
G71S,0.213
Y18I,0.00227
T173L,-2.22
M176C,10.1
S59V,0.794

# Series 4
# Target: Prothrombin, mature alpha-thrombin (F2, Homo sapiens, UniProt P00734)
# Technique: aptamer microarray, sandwich
# Molecule type: DNA with 2'F-ANA
# Sample: in vitro
# Concentration: 200 nM
# Setting: whole 15-mer aptamer, many near background
# With: Cy3 exosite-II aptamer, 400 nM
# Direction: higher = stronger binding
# Oligonucleotide: GGTTGGTGTGGTTGG
Modification,mean fluorescence intensity
2'F-ANA at 3 5 6 7 9 10 11 13 15,54.2 a.u.
2'F-ANA at 1 2 4 5 6 7 8 9 11 12 14 15,48.6 a.u.
2'F-ANA at 1 2 4 5 6 7 8 9 10 14,51.8 a.u.
2'F-ANA at 1 2 3 4 5 6 7 8 9 12 13 15,76.7 a.u.
2'F-ANA at 2 3 5 6 8 12 14,56.5 a.u.
2'F-ANA at 1 3 4 6 10 11 14 15,90.1 a.u.
2'F-ANA at 2 8 10 11 14,75.8 a.u.
2'F-ANA at 3 6 7 8 9 10 14 15,353 a.u.
2'F-ANA at 1 2 3 6 7 8 10 12 13 14 15,58.9 a.u.
2'F-ANA at 1 2 4 5 6 13 14 15,51.6 a.u.
2'F-ANA at 2 5 6 7 10 11 12 15,53.8 a.u.
2'F-ANA at 2 4 6 8 9 10 13 14 15,60 a.u.
2'F-ANA at 1 4 8 9 10 11 13,45.2 a.u.
2'F-ANA at 1 4 5 9 10 15,286 a.u.
2'F-ANA at 1 2 5 7 9 10 14 15,48.6 a.u.
2'F-ANA at 3 4 5 6 8 11,85 a.u.

# Series 5
# Target: Sal-like protein 4, full length isoform B (SALL4, Homo sapiens, UniProt Q9UJQ4-2, residues 1-616)
# Technique: universal PBM
# Molecule type: double-stranded DNA, one strand shown
# Sample: in vitro
# Concentration: not given
# Setting: 8-mer, flanks averaged, mean of replicates
# Direction: higher = stronger binding
Oligonucleotide,E-score
CAACAGAA,0.131
AACAAAAT,0.267
AGAACGAC,-0.0451
CAACGAAC,-0.0599
CCAACAGG,-0.257
ATGATTAG,0.209
ACAAAATG,0.274
ACGTATTG,0.0914
TCAGCAAA,0.165
AAGCGCAC,-0.161
CTGATATC,0.0437
ATGTAACC,0.0584
GTGCTCAA,-0.013
AACTGCGA,-0.141
CCATGTGA,-0.101
GTGGCCGA,-0.179
CGGCGTAA,-0.0143
CAAGTGCA,-0.0223
CGCACCAC,-0.0719
ATAACGGG,0.0928
CCCCAGTC,-0.193
ACGAGAGG,-0.0907
ATACGGGA,-0.0473
TTAGGCAA,-0.0158
ACACAAGA,0.163

# Series 6
# Target: FOXO3, forkhead domain (mouse, UniProt Q9WVH4, residues 31-263)
# Chain of UniProt Q9WVH4 (31-263, looked up): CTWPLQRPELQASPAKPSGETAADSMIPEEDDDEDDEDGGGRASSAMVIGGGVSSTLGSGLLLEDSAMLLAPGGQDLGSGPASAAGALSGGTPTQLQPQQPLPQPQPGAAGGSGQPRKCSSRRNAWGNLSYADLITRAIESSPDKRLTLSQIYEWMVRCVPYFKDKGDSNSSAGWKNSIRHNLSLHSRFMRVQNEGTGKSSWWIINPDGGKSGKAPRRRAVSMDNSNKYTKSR
# Technique: protein-binding microarray
# Molecule type: hairpin DNA
# Sample: in vitro
# Concentration: not given
# Setting: whole hairpin DNA, median over replicate spots
# Relative to: not given
# Direction: higher = stronger binding
Oligonucleotide,median fluorescence
GAGGCCCGGTAACCAACGCCTCCTGGCGTTGGTTACCGGGCCTCACACTC (5mC at 7),4560 a.u.
GAGGCCATGTAACCGACGCCTCCTGGCGTCGGTTACATGGCCTCACACTC (5mC at 14),4210 a.u.
GAGGCCATGAAAACAACGCCTCCTGGCGTTGTTTTCATGGCCTCACACTC,4710 a.u.
GAGGCCATGTGAACAACGCCTCCTGGCGTTGTTCACATGGCCTCACACTC,4110 a.u.
GAGGCCATGCCAACAACGCCTCCTGGCGTTGTTGGCATGGCCTCACACTC,4690 a.u.
GAGGCCATGCAAACACGGCCTCCTGGCCGTGTTTGCATGGCCTCACACTC (5mC at 28),4680 a.u.
GAGGCCATGTAACCTACGCCTCCTGGCGTAGGTTACATGGCCTCACACTC,3800 a.u.
GAGGCCATGCGACCAACGCCTCCTGGCGTTGGTCGCATGGCCTCACACTC (5mC at 10 34),4570 a.u.
GAGGCCACGTAACCAACGCCTCCTGGCGTTGGTTACGTGGCCTCACACTC (5mC at 36),4390 a.u.
GAGGCCATGTCGACAACGCCTCCTGGCGTTGTCGACATGGCCTCACACTC (5mC at 33),4550 a.u.
GAGGCCATGCAAACACGGCCTCCTGGCCGTGTTTGCATGGCCTCACACTC,4990 a.u.
GAGGCCATGCAAACCGCGCCTCCTGGCGCGGTTTGCATGGCCTCACACTC,4930 a.u.
GAGGCCATGCAAACCGCGCCTCCTGGCGCGGTTTGCATGGCCTCACACTC (5mC at 15),4780 a.u.
GAGGCCATGCAAACACGGCCTCCTGGCCGTGTTTGCATGGCCTCACACTC (5mC at 16),4600 a.u.
GAGGCCATGTAGCCAACGCCTCCTGGCGTTGGCTACATGGCCTCACACTC (5mC at 33),4250 a.u.
GAGGCCATGCCGACAACGCCTCCTGGCGTTGTCGGCATGGCCTCACACTC (5mC at 11 33),4510 a.u.
GAGGCCATGAAACCAACGCCTCCTGGCGTTGGTTTCATGGCCTCACACTC,3990 a.u.

# Series 7
# Target: ATF7, bZIP domain (human)
# Technique: DHFR protein complementation
# Sample: yeast
# Setting: single substitutions, most at no-binding floor
# Relative to: wild-type JUN-FOS pair
# Direction: higher = stronger binding
# Starting sequence: JUN, bZIP domain (human); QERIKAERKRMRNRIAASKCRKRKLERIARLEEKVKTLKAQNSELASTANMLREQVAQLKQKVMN; partner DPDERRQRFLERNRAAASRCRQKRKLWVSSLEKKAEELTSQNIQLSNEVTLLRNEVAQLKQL
Change,binding fitness [natural log]
E44Q,-0.939
V35Y,-1.33
L45Q,-1.37
L38W,-1.33
A29L,-1.11
A40G,-1.22
R30K,-0.942
L31I,-1.28
E54V,-1.26
Q41I,-1
L31G,-1.47
Q55I,-1.07
Q55L,-0.955
A46M,-0.928
S47D,-0.864
L38G,-1.46
T37H,-0.723
S47I,-0.988
R53P,-1.4
A49G,-1.42
S47C,-0.941

# Excerpt of the above (series 1):
Change,normalised enrichment score
F9V,0.701
R8N,2.31
I11K,1.14
I11F,1.34
P1V,1.06
D10C,1.36
I11A,1.57
P3N,0.355
G13V,1.86
K6L,0.933
K2R,1.04
G13K,1.58
P3G,1.73
F9H,0.605
K6H,1.14
F9G,1.22
K6A,2.37
F9I,-0.525
L7C,0.88
K5H,1.02
D10A,1.64
L4M,3.31
